Measured values of several laboratories.
Every numbered part comes from another study and shows a few of its results, in no order.
Chain of UniProt P51451 (whole entry, looked up): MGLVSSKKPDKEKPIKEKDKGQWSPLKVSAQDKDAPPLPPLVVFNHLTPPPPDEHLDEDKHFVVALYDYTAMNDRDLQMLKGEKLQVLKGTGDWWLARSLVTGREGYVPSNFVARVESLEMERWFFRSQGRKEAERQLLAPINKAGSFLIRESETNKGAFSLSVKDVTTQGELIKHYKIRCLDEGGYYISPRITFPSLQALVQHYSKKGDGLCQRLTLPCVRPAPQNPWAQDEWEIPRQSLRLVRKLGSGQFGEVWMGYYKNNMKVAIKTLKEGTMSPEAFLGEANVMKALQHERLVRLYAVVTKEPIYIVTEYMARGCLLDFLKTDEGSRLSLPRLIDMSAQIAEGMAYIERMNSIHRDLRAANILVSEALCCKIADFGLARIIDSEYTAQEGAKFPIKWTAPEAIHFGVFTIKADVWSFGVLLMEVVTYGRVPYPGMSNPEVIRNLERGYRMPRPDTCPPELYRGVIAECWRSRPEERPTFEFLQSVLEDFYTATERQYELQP
Chain of UniProt O15530 (whole entry, looked up): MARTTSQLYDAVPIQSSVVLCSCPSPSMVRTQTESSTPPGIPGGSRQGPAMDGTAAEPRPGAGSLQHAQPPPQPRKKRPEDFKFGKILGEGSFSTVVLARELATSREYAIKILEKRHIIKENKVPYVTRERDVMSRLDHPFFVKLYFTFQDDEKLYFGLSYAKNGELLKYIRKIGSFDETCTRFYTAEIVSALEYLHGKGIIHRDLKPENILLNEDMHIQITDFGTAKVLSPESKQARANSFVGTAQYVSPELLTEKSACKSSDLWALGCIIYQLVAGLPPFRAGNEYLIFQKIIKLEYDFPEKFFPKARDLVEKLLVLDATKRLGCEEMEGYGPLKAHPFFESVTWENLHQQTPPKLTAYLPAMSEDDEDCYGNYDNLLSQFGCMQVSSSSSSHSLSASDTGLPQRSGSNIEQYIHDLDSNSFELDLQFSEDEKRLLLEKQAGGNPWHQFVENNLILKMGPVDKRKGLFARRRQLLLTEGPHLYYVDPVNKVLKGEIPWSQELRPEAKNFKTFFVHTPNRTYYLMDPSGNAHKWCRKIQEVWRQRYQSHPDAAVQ
Chain of UniProt O95819 (whole entry, looked up): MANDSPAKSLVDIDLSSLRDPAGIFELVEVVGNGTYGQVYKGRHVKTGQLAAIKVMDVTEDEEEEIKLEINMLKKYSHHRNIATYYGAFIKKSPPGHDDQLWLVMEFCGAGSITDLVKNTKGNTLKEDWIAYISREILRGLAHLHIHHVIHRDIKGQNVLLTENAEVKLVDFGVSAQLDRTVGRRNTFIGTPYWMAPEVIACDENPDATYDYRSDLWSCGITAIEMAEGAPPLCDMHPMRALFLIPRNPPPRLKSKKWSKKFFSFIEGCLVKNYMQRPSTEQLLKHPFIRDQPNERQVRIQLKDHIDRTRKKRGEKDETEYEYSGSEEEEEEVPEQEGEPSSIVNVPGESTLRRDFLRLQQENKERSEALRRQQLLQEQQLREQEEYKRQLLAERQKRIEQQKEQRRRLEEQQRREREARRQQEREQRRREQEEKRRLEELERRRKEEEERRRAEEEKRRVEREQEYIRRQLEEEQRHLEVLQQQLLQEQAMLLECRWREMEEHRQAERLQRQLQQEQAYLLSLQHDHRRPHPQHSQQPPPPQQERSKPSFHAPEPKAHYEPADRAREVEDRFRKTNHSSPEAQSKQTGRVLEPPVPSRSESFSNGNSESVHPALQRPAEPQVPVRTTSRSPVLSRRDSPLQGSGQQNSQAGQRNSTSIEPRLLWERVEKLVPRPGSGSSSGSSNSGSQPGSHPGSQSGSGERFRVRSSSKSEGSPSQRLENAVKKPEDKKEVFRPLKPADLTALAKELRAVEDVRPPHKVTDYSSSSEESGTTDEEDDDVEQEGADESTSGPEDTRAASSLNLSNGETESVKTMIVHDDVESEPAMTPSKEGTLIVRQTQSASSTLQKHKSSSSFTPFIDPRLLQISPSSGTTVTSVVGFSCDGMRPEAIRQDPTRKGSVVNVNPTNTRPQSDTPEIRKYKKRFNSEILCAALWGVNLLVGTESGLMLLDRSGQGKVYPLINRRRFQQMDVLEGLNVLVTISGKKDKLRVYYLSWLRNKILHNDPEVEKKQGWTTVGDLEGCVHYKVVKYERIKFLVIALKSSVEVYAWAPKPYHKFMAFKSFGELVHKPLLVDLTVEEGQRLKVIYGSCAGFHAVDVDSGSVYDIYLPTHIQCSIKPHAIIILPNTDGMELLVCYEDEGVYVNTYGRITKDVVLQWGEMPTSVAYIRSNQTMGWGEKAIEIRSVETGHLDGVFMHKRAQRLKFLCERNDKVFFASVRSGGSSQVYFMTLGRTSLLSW
Chain of UniProt O75716 (whole entry, looked up): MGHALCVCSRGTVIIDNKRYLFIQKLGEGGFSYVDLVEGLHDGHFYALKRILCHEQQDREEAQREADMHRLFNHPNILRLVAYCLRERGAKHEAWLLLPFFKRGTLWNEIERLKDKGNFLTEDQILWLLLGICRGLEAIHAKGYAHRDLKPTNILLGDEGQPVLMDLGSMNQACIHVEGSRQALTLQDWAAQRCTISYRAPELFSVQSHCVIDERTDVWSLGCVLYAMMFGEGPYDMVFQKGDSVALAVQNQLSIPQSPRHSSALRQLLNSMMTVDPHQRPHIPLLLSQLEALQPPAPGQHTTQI
Chain of UniProt Q13554 (whole entry, looked up): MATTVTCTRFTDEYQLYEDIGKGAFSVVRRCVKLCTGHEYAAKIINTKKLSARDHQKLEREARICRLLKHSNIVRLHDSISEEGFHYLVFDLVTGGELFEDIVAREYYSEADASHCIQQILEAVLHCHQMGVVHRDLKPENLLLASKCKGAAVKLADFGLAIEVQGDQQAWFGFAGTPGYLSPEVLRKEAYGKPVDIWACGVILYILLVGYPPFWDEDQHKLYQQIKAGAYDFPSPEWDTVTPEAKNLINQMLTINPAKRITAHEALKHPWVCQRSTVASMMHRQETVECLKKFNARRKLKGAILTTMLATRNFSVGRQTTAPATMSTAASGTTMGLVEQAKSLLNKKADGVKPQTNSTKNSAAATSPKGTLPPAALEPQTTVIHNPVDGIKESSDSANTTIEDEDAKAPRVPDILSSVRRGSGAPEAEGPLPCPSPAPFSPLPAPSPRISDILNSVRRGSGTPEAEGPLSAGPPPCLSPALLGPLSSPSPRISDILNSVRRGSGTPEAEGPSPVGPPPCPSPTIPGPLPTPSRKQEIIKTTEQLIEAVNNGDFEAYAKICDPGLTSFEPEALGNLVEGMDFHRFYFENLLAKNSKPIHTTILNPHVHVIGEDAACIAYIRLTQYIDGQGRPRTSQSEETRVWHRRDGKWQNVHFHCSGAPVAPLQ
Chain of UniProt O43781 (whole entry, looked up): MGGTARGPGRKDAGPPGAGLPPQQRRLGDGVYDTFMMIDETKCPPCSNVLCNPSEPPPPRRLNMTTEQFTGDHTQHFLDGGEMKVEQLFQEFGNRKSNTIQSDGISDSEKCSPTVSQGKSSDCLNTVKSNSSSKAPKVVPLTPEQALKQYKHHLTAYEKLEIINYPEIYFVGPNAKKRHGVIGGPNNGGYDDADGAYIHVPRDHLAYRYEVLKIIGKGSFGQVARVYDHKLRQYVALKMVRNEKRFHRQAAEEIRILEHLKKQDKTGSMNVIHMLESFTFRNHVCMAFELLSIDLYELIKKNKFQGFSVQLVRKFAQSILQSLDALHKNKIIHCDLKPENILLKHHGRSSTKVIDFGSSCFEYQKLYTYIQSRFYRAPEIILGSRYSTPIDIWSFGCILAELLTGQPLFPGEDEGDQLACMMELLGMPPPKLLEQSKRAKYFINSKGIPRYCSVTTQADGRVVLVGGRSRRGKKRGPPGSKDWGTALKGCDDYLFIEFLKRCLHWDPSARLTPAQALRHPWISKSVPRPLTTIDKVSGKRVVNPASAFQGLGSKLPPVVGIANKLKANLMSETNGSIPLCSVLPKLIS
Chain of UniProt Q9UEE5 (whole entry, looked up): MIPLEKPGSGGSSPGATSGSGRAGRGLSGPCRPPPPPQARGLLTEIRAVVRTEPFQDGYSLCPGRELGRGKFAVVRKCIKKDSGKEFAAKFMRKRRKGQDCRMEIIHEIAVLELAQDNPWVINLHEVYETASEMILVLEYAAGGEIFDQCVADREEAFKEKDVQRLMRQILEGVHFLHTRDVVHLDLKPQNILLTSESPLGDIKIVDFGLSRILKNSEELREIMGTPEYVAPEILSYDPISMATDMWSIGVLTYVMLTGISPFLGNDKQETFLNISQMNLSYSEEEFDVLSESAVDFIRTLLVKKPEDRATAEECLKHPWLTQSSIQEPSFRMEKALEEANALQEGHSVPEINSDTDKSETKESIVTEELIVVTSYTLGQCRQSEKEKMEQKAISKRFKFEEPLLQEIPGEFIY
Chain of UniProt P06493 (whole entry, looked up): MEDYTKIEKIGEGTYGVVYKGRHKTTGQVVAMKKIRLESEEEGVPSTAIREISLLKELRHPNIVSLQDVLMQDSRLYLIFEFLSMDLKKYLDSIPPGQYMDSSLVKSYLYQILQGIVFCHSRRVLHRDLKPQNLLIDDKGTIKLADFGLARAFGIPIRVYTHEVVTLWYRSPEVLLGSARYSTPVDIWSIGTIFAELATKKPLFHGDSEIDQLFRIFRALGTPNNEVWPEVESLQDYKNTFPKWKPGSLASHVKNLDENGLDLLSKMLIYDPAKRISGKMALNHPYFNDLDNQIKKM
Chain of UniProt Q96PF2 (whole entry, looked up): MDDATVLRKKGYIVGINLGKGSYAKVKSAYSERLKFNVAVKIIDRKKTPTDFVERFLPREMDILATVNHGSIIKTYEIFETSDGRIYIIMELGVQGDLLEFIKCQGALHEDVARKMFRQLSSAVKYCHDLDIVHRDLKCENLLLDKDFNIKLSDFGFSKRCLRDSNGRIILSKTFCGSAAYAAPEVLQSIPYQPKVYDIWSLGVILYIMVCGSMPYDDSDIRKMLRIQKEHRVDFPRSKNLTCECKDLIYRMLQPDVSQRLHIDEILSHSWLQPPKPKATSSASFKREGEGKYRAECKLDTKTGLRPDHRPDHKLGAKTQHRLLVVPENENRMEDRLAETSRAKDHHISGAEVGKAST

Set 1 — observed: enzyme activity; action: inhibitor; concentration: 0.5 µM; measurement: remaining activity
Compound: O=C1NC(=O)c2c1c1c3ccccc3n3c1c1c2c2ccccc2n1[C@H]1CC[C@@H]3O1
Ephrin type-B receptor 1 (EPHB1, Homo sapiens, UniProt P54762); baseline: control: 80.2%
Testis-specific serine/threonine-protein kinase 2 (TSSK2, Homo sapiens, UniProt Q96PF2); baseline: control: 87.2%
Leukocyte tyrosine kinase receptor (LTK, Homo sapiens, UniProt P29376); radiometric: 21.8%
Mitogen-activated protein kinase kinase kinase kinase 4 (MAP4K4, Homo sapiens, UniProt O95819); baseline: control: 0.995%
Ribosomal protein S6 kinase alpha-5 (RPS6KA5, Homo sapiens, UniProt O75582); baseline: control: 9.88%
MAP kinase-activated protein kinase 3 (MAPKAPK3, Homo sapiens, UniProt Q16644); baseline: control: 93.1%
Homeodomain-interacting protein kinase 4 (HIPK4, Homo sapiens, UniProt Q8NE63); baseline: control: 29.1%
Cyclin-dependent kinase 6, with cyclin D3 (CDK6, Homo sapiens, UniProt Q00534); baseline: control: 19.9%
Ribosomal protein S6 kinase alpha-6 (RPS6KA6, Homo sapiens, UniProt Q9UK32); baseline: control: 1.08%
Tyrosine-protein kinase Srms (SRMS, Homo sapiens, UniProt Q9H3Y6); baseline: control: 105%
Cyclin-dependent kinase 1, with cyclin B (CDK1, Homo sapiens, UniProt P06493); baseline: control: 29.9%
Dual specificity tyrosine-phosphorylation-regulated kinase 3 (DYRK3, Homo sapiens, UniProt O43781); baseline: control: 16.6%
Ephrin type-A receptor 4 (EPHA4, Homo sapiens, UniProt P54764); baseline: control: 91.4%
cAMP-dependent protein kinase catalytic subunit gamma (PRKACG, Homo sapiens, UniProt P22612); baseline: control: 39.8%
Homeodomain-interacting protein kinase 2 (HIPK2, Homo sapiens, UniProt Q9H2X6); baseline: control: 32.6%
Cyclin-dependent kinase 4, with cyclin D3 (CDK4, Homo sapiens, UniProt P11802); baseline: control: 22.2%
Serine/threonine-protein kinase 17A (STK17A, Homo sapiens, UniProt Q9UEE5); baseline: control: 8.65%
Serine/threonine-protein kinase WNK3 (WNK3, Homo sapiens, UniProt Q9BYP7); baseline: control: 86%
Tyrosine-protein kinase Blk (BLK, Homo sapiens, UniProt P51451); baseline: control: 37.7%
Phosphorylase b kinase gamma catalytic chain, skeletal muscle/heart isoform (PHKG1, Homo sapiens, UniProt Q16816); baseline: control: 2.75%
Calcium/calmodulin-dependent protein kinase type II subunit beta (CAMK2B, Homo sapiens, UniProt Q13554); baseline: control: 9.85%
3-phosphoinositide-dependent protein kinase 1 (PDPK1, Homo sapiens, UniProt O15530); baseline: control: 10.6%
Serine/threonine-protein kinase 16 (STK16, Homo sapiens, UniProt O75716); baseline: control: 58.1%
Tyrosine-protein kinase receptor UFO (AXL, Homo sapiens, UniProt P30530); baseline: control: 38.1%
Ephrin type-B receptor 4 (EPHB4, Homo sapiens, UniProt P54760); baseline: control: 75.4%

Set 2 — cell line: HEK-293T; organism: VSV pseudotyped with VSV-G; concentration: 10 µM; time: 16 h; measurement: pseudovirus infection
O=P1(N(CCCl)CCCl)NCCCO1 (centres unmarked): 107%
c1ccc([C@H]2CN3CCSC3=N2)cc1: 98.6%
COc1cc2c(c(OC)c1OC)-c1ccc(OC)c(=O)cc1[C@@H](NC(C)=O)CC2: 17.9%
O=C(O)c1cccnc1: 95%
C=CCN1CC[C@]23c4c5ccc(O)c4O[C@H]2C(=O)CC[C@@]3(O)[C@H]1C5: 121%
Cc1cc2c(s1)Nc1ccccc1N=C2N1CCN(C)CC1: 110%
CNCCC(Oc1ccc(C(F)(F)F)cc1)c1ccccc1 (centres unmarked): 124%
NCCc1c[nH]cn1: 120%
NNc1nncc2ccccc12: 106%
CC(C(=O)O)c1cccc(C(=O)c2ccccc2)c1 (centres unmarked): 90.9%
Clc1ccccc1C(c1ccccc1)(c1ccccc1)n1ccnc1: 54.4%
CN/C(=N/CCSCc1nc[nH]c1C)NC#N: 108%
NC(=O)C(c1ccccc1)(c1ccccc1)[C@@H]1CCN(CCc2ccc3c(c2)CCO3)C1: 96.7%
CCCCS(=O)(=O)N[C@@H](Cc1ccc(OCCCCC2CCNCC2)cc1)C(=O)O: 96.2%
CN1CCC(=C2c3ccccc3C=Cc3ccccc32)CC1: 129%
Cc1cc(NS(=O)(=O)c2ccc(N)cc2)no1: 94%
Clc1cccc(Cl)c1N=C1NCCN1: 104%
Clc1ccc(C(Cn2ccnc2)OCc2ccsc2Cl)c(Cl)c1 (centres unmarked): 105%
CCN(CC)CC#CCOC(=O)C(O)(c1ccccc1)C1CCCCC1 (centres unmarked): 103%
O=C1CCc2ccc(OCCCCN3CCN(c4cccc(Cl)c4Cl)CC3)cc2N1: 93.8%
O=C1OCCN1/N=C/c1ccc([N+](=O)[O-])o1: 92.3%
CN1[C@@H]2CC[C@H]1C[C@@H](OC(c1ccccc1)c1ccccc1)C2: 118%

Set 3 — observed: metabolic stability; matrix: liver microsomes; concentration: 1 µM; measurement: compound remaining
Structure (SMILES): O=C1CCC(N2Cc3c(ccc4c3OCC43CCN(Cc4ccccc4)CC3)C2=O)C(=O)N1 (centres unmarked)
rat; 5 min: 100%
mouse; 15 min: 87.6%
human; 5 min: 107%
rat; 15 min: 90.4%
rat; 30 min: 80.2%
human; 15 min: 91.1%
rat; 45 min: 78.2%
mouse; 5 min: 93.8%
human; 0 h: 100%
rat; 0 h: 100%
human; 45 min: 72%
human; 30 min: 81.3%
mouse; 0 h: 100%
mouse; 30 min: 70.5%

Set 4 — cell line: HEK-293T-ACE2-TMPRSS2; method: cell count; concentration: 10 µM; measurement: viability
Cc1nc2sccn2c1C(=O)N1CCCC(C(=O)c2cccc(C(F)(F)F)c2)C1 (centres unmarked): 113%
CC(=O)Nc1ccc(Cl)c(C(=O)NCCN2CCCOC2=O)c1: 66%
O=C(CC1=CCCCC1)N1C[C@@H](CO)[C@H](c2nc(C3CC3)no2)C1: 92%
CC1CN(S(=O)(=O)N2CCN(Cc3csc4ccccc34)CC2)CC(C)O1 (centres unmarked): 69%
C=CCNc1nnc(Sc2ncnc3ccsc23)s1: 96%
Cc1nc(Sc2nnnn2C2CC2)c2c(C)c(C)sc2n1: 103%
O=S(=O)(c1csc(-c2ccc(F)cc2)n1)N1CCC1c1ccccc1 (centres unmarked): 65%
CCc1nc(-c2ccc(C(=O)NCCc3ccc(Cl)cc3)cc2)cs1: 104%
CN1CCN(S(=O)(=O)c2ccc(N3Cc4cc5c(cc4C4(CCCC4)C3)OCCO5)nc2)CC1: 68%
COc1ccc(Cn2ccc3nc4ccn(-c5ccn[nH]5)c(=O)c4cc3c2=O)cc1: 111%
Cc1nc(Sc2nnc(-c3ccccc3)n2C)c2sc(=S)n(-c3ccccc3)c2n1: 66%
Oc1ccc(CN2CCN(Cc3ccc(Br)s3)CC2)c2cccnc12: 70%
COc1ccc(CN2CCN(Cc3nc4ccccc4s3)CC2CCO)cc1C (centres unmarked): 100%
CC1Oc2ccc(Nc3nccc(C(F)(F)F)n3)cc2NC1=O (centres unmarked): 70%
CCCc1nc(CN(CC)C(=O)c2csnn2)no1: 68%
O=c1c(Cl)c(Cl)cnn1Cc1ccc([N+](=O)[O-])cc1: 73%
CCC(CC)C(=O)N1CCN(c2nc3ccccc3nc2C(F)(F)F)CC1: 84%
O=C(c1ccoc1)N1CCC2(CCCN(CCCc3ccccc3)C2)C1 (centres unmarked): 112%
CSc1nnc(NC(=O)c2nc(S(=O)(=O)Cc3ccccc3)ncc2Cl)s1: 74%
CC(C)CC1(C)NC(=O)N(Cc2cc([N+](=O)[O-])cc3c2OCOC3)C1=O (centres unmarked): 104%
CCOC(=O)c1cc(C#N)c(Sc2nnc(SC)s2)nc1C(F)(F)F: 67%
O=C(NCC1CCN(Cc2ccc3nonc3c2)C1)C1CCCCC1 (centres unmarked): 68%
CCOc1ccccc1CN1CCN(Cc2ccc3nsnc3c2)CC1CCO (centres unmarked): 111%
CC(C)CC(NC(=O)c1cn2ccsc2n1)c1nnc2n1CCNCC2 (centres unmarked): 67%
CCSc1ncnc2c1sc1nc(C(C)C)c3c(c12)CC(C)(C)OC3: 108%

Some of these lines once more (set 2):
CN/C(=N/CCSCc1nc[nH]c1C)NC#N: 108%
CC(C(=O)O)c1cccc(C(=O)c2ccccc2)c1 (centres unmarked): 90.9%
CN1CCC(=C2c3ccccc3C=Cc3ccccc32)CC1: 129%
Cc1cc2c(s1)Nc1ccccc1N=C2N1CCN(C)CC1: 110%
c1ccc([C@H]2CN3CCSC3=N2)cc1: 98.6%
CCCCS(=O)(=O)N[C@@H](Cc1ccc(OCCCCC2CCNCC2)cc1)C(=O)O: 96.2%
O=P1(N(CCCl)CCCl)NCCCO1 (centres unmarked): 107%
O=C1OCCN1/N=C/c1ccc([N+](=O)[O-])o1: 92.3%
NNc1nncc2ccccc12: 106%
CCN(CC)CC#CCOC(=O)C(O)(c1ccccc1)C1CCCCC1 (centres unmarked): 103%
COc1cc2c(c(OC)c1OC)-c1ccc(OC)c(=O)cc1[C@@H](NC(C)=O)CC2: 17.9%
C=CCN1CC[C@]23c4c5ccc(O)c4O[C@H]2C(=O)CC[C@@]3(O)[C@H]1C5: 121%
NCCc1c[nH]cn1: 120%
